Measured values gathered from unrelated publications.
± marks the error that the study gave.

Substance | assay | system | conditions | how to read | quantity | value
C#Cc1ccc2c(c1)C(c1ccccc1F)=N[C@@H](C)c1c(C(=O)OCCC)ncn1-2 | metabolic stability | human liver microsomes | 0.5 h |  | remaining compound | < 5%
CCNc1nc(Cl)nc(NC(C)C)n1 | LC-MS/MS | herbicide solution | 2 h, 23 °C, added: 365 nm UV exposure |  | remaining amount | 139 ± 23.5%
COc1ccc2cc(C(=O)NCCc3ccc(OP(=O)(CC/C=C(\C)COC(C)=O)OC)cc3)c(=O)oc2c1 (stereo not drawn) |  | human plasma 50% in PBS | 100 µM, 24 h, pH 7.5 |  | remaining compound | 27 ± 2%
CC[C@H](C)[C@@H]1NC(=O)[C@@H](Cc2ccccc2)OC(=O)CNC(=O)[C@H]([C@@H](C)CC)NC(=O)[C@@H](Cc2ccccc2)OC(=O)CNC1=O |  | human plasma | 2 h, 37 °C |  | remaining compound | 82%
CCc1cccc(C)c1N(C(=O)CCl)C(C)COC (stereo not drawn) | LC-MS/MS | herbicide solution | 2 h, 4 °C, added: 254 nm UV exposure |  | remaining amount | 16.8 ± 6.4%
CC(C)OC(=O)[C@H](CCC(=O)C=[N+]=[N-])NC(=O)OC(OC(=O)C(C)(C)C)C(C)C (mixture of isomers) |  | mouse plasma | 10 µM, 60 min, 37 °C |  | remaining compound | 0%
Cc1cc2c(C(C)C)c(O)c(O)c(C=O)c2c(O)c1-c1c(C)cc2c(C(C)C)c(O)c(O)c(C=O)c2c1O |  | acetonitrile extract of human plasma | 0.896 µg/mL, 24 h, 4 °C, autosampler |  | remaining concentration | 97.3%
CCNc1nc(Cl)nc(NCC)n1 | LC-MS/MS | herbicide solution | 2 h, 4 °C, added: 365 nm UV exposure |  | remaining amount | 38.7 ± 15%
CC[C@H](C)[C@@H]1NC(=O)[C@@H]2CSSC[C@H](NC(=O)[C@H](Cc3ccccc3)NC(=O)[C@@H](NC(=O)[C@@H](CO)NC(=O)[C@@H](Cc3ccccc3)NC(=O)[C@@H](CC(C)C)NC(=O)[C@@H]3CCCN3C(=O)[C@@H](CC(C)C)NC(=O)[C@@H](Cc3ccccc3)NC(=O)[C@@H](CCC(=O)O)NC(=O)[C@@H](C)NC(=O)[C@@H](Cc3ccccc3)NC(=O)[C@H](N)C(C)C)CSSC[C@@H](C(=O)N[C@@H](CC(C)C)C(=O)N[C@@H](CC(N)=O)C(N)=O)NC1=O)C(=O)N[C@@H]([C@@H](C)O)C(=O)N[C@@H](CCCNC(=N)N)C(=O)N[C@@H](CCSC)C(=O)N[C@@H](CO)C(=O)N1CCC[C@H]1C(=O)N1CCC[C@H]1C(=O)N[C@@H](CCC(N)=O)C(=O)N2 |  | chymotrypsin digestion | 20 h, pH 8.0, 25 °C, added: 1 M guanidine HCl |  | remaining intact peptide | 95%
CCc1cccc(CC)c1N(COC)C(=O)CCl | LC-MS/MS | herbicide solution | 2 h, 40 °C, added: 254 nm UV exposure |  | remaining amount | 2.33 ± 0.01%
CC[C@H](C)[C@H](N)C(=O)N[C@@H](CO)C(=O)N1CCC[C@H]1C(=O)N[C@@H](CCCNC(=N)N)C(=O)N[C@H](C(=O)N[C@@H](CC(C)C)C(=O)N[C@@H](CC(N)=O)C(=O)N[C@@H](C)C(=O)N[C@@H](Cc1c[nH]c2ccccc12)C(=O)O)[C@@H](C)O |  | cytosolic extract | 1 nmol, 10 min, pH 7.4, 37 °C | reference: time 0 | remaining epitope | < 50%
Dendroaspis natriuretic peptide | cGMP elevation | human kidney membranes | concentration not given, 2 h, 37 °C |  | remaining activity | 46%
CC(C)C(=O)OC[C@H]1O[C@@H](n2ccc(NO)nc2=O)[C@H](O)[C@@H]1O |  | rat brain dialysate | 250 ng/mL, 4 weeks, -20 °C, long-term storage, added: NHC 1000 ng/mL |  | remaining compound | 99.17 ± 0.69%
CCOCN(C(=O)CCl)c1c(C)cccc1CC | LC-MS/MS | herbicide solution | 2 h, 40 °C, added: 365 nm UV exposure |  | remaining amount | 17 ± 10.7%
CC(C)[C@@H]1NC(=O)CNC(=O)[C@H](CC(N)=O)NC(=O)[C@H](CCCNC(=N)N)NC(=O)[C@H](Cc2ccc(O)cc2)NC(=O)[C@H](C(C)C)NC(=O)[C@@H](NC(=O)[C@@H](NC(=O)[C@H](CC(N)=O)NC(=O)[C@H](Cc2c[nH]c3ccccc23)NC(=O)[C@H](C)NC(=O)[C@H](Cc2ccccc2)NC(=O)CN)C(C)C)CSSC[C@@H](C(=O)N[C@@H](Cc2cnc[nH]2)C(=O)N[C@@H](CCCNC(=N)N)C(=O)N[C@@H](CCCNC(=N)N)C(=O)N[C@@H](C)C(=O)N[C@@H](CC(N)=O)C(N)=O)NC(=O)[C@H](C(C)C)NC(=O)[C@H](CCCNC(=N)N)NC1=O |  | mouse kidney homogenate | 2560 µM, 8 h |  | remaining peptide | < 9.76%
